Results of several laboratories.
Protocols differ between the studies behind these lines. “And” joins repeats or separate records; there may be more than shown. ± gives the spread as reported.
Beta-lactamase CTX-M-27: Beta-lactamase CTX-M-27 (Escherichia coli, UniProt Q840M4)
Sequence of UniProt Q13526 (whole entry, looked up): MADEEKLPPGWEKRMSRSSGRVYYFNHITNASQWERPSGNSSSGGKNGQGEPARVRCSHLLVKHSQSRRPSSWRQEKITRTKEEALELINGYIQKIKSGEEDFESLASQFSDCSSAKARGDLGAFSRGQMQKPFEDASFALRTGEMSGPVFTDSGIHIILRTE
Sequence of UniProt Q9LIR4 (whole entry, looked up): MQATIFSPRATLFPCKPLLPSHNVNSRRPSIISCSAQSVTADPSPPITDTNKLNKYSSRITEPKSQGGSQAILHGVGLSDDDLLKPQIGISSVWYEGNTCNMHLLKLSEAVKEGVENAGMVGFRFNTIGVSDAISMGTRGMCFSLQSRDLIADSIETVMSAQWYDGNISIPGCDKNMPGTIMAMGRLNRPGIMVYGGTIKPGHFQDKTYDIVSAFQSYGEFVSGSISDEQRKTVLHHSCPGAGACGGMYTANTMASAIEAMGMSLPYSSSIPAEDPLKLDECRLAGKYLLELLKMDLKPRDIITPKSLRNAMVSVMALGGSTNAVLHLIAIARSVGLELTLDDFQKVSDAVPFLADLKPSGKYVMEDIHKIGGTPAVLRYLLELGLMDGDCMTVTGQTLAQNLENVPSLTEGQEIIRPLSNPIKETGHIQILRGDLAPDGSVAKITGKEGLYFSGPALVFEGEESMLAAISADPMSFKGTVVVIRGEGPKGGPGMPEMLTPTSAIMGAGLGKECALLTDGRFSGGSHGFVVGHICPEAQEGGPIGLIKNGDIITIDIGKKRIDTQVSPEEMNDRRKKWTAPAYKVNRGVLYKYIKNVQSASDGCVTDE
Sequence of UniProt Q09472 (whole entry, looked up): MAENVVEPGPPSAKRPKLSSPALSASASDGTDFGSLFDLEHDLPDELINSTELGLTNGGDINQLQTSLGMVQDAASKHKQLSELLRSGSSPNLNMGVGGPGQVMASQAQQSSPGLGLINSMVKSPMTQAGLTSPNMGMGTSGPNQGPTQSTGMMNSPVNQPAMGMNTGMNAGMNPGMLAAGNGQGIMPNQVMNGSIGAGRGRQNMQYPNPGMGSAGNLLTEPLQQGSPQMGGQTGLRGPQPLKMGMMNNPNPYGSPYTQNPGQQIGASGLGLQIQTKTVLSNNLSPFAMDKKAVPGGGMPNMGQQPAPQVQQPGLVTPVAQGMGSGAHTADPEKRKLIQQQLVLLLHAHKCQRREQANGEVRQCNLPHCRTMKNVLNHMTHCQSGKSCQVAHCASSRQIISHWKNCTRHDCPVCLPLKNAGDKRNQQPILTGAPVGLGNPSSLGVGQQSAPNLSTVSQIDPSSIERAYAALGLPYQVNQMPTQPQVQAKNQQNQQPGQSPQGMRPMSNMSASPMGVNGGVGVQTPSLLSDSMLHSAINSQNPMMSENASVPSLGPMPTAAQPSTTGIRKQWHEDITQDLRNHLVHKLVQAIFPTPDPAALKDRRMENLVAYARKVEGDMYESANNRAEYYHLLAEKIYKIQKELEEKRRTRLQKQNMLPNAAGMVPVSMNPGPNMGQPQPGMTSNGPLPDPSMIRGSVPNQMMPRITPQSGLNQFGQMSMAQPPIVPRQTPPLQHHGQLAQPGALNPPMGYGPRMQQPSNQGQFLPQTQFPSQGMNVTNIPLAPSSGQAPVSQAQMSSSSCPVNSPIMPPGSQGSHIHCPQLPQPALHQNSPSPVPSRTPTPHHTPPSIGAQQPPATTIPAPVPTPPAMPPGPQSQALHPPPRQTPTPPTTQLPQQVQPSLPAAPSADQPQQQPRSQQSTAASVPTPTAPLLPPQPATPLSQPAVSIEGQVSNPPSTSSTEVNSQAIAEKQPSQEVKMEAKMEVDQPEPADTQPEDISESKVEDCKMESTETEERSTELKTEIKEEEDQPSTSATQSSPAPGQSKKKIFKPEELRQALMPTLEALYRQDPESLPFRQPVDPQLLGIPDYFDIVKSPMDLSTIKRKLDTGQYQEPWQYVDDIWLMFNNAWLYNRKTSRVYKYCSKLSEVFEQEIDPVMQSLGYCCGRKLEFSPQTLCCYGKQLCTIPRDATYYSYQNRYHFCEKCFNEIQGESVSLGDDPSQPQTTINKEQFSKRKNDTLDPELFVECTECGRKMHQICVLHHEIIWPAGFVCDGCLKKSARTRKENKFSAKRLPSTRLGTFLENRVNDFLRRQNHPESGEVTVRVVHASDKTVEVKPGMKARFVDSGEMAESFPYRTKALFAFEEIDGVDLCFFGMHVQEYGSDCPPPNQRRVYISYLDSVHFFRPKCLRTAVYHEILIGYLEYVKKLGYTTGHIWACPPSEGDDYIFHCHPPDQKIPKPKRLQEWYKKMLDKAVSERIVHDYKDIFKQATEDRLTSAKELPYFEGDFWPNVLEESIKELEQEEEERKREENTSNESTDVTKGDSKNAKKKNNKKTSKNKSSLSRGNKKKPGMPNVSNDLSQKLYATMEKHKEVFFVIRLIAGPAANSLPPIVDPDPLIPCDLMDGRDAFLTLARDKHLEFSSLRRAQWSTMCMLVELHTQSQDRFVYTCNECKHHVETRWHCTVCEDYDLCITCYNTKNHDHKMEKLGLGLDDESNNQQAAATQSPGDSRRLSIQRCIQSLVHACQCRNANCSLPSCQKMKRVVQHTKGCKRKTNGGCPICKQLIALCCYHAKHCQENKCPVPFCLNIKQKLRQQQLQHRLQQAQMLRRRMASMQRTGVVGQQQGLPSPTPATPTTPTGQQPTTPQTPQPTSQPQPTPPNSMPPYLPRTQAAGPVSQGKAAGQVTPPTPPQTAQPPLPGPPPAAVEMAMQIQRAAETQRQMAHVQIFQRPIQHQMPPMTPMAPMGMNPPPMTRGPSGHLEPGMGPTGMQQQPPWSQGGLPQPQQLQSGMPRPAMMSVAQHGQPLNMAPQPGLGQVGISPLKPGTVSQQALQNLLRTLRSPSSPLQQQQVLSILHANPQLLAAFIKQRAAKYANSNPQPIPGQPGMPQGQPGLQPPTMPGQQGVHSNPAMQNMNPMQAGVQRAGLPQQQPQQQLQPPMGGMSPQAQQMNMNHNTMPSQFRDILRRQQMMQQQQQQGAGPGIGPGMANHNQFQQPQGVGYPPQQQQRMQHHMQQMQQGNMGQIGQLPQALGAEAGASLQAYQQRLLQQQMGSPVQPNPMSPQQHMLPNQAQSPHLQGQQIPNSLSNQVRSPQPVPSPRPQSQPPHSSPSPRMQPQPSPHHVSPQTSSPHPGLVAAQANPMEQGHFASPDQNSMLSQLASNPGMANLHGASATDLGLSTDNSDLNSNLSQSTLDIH
Sequence of UniProt A6QGU8 (whole entry, looked up): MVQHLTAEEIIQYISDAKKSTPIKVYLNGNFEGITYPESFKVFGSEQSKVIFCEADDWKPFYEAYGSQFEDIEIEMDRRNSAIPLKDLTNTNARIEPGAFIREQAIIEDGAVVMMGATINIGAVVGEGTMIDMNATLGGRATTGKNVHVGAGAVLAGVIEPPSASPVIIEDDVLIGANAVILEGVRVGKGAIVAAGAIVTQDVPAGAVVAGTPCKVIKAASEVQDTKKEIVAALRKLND
Sequence of UniProt P37353 (whole entry, unmodified, looked up): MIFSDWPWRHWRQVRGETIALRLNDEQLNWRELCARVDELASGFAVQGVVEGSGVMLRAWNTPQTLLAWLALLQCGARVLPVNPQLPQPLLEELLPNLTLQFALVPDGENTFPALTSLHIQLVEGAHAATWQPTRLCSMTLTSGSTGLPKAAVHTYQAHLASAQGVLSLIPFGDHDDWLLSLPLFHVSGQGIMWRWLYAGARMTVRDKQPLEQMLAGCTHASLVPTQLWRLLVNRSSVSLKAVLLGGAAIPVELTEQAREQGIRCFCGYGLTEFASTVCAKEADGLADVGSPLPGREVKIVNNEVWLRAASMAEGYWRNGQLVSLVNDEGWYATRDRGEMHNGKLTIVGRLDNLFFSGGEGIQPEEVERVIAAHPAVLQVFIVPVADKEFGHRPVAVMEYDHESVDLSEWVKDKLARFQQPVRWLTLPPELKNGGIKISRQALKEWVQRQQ
Sequence of UniProt B9K712 (whole entry, unmodified, looked up): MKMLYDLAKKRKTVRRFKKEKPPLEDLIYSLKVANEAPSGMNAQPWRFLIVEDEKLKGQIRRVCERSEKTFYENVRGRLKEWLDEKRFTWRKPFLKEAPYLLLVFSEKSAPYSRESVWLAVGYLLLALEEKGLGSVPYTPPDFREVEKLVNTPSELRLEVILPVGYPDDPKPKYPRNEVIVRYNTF
Sequence of UniProt Q9HB29 (whole entry, looked up): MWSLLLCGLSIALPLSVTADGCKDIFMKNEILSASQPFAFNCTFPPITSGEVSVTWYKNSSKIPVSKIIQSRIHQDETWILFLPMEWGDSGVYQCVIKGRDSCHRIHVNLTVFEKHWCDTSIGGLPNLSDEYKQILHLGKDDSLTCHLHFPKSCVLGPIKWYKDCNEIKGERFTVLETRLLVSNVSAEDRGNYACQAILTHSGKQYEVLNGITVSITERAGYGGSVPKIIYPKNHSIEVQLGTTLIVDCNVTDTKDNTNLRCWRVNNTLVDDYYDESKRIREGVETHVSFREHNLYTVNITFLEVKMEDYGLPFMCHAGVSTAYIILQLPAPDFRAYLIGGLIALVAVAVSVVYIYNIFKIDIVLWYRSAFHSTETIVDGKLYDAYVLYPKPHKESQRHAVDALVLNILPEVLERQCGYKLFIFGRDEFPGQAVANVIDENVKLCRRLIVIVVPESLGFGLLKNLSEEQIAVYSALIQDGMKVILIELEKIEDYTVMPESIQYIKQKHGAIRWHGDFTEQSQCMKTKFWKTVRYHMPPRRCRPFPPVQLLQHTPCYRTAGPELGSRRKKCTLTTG
Sequence of UniProt Q8JGN5 (whole entry, looked up): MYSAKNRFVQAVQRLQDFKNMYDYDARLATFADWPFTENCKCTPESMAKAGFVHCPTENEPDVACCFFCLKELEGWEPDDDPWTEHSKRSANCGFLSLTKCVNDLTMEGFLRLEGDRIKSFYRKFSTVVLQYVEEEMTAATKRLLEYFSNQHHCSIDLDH

O=C(Nc1cccc(-c2nn[nH]n2)c1)c1cc(-n2ccnn2)cc(C(F)(F)F)c1
Kd (Beta-lactamase CTX-M-27; surface plasmon resonance; 25 °C): 4.16 ± 0.1 µM

C=Cc1cc(OC)c2c(c1)c(=O)oc1c2cc(OC)c2c(O)ccc([C@@H]3O[C@H](C)[C@H](O)[C@@](C)(O)[C@H]3O)c21
Kd (2,3,4,5-tetrahydropyridine-2,6-dicarboxylate N-acetyltransferase (dapH, Staphylococcus aureus, UniProt A6QGU8); binding, microscale thermophoresis): 0.00285 ± 0.0019 µM

N[C@@H](Cc1ccc(O)c(I)c1)C(=O)O
Kd (Iodotyrosine deiodinase (IYD, Thermotoga neapolitana, UniProt B9K712, Y112A); FMN fluorescence quenching; 25 °C, Y112A variant): 0.03 ± 0.02 µM

C[C@H](N)C(=O)N[C@@H](CCCNC(=N)N)C(=O)N[C@H](C(=O)N[C@@H](CCCCN)C(=O)N[C@@H](CCC(N)=O)C(=O)N[C@H](C(=O)N[C@@H](C)C(=O)N[C@@H](CCCNC(=N)N)C(=O)N[C@@H](CCCCN)C(=O)N[C@@H](CO)C(=O)N[C@H](C(=O)NCC(=O)O)[C@@H](C)O)[C@@H](C)O)[C@@H](C)OP(=O)(O)O
Kd (Baculoviral IAP repeat-containing protein 5.1-A (birc5.1-a, Xenopus laevis, UniProt Q8JGN5); ITC; pH 7.2, 25 °C): 6.47 ± 0.47 µM

CC[C@H](C)[C@H](NC(=O)[C@H](CC(=O)O)NC(=O)[C@@H](NC(=O)[C@@H]1CCCN1C(=O)[C@H](CC(N)=O)NC(=O)[C@H](CCC(N)=O)NC(=O)[C@H](CCC(N)=O)NC(=O)[C@H](CC(N)=O)NC(=O)CNC(=O)[C@H](Cc1ccc(O)cc1)NC(=O)[C@@H](NC(=O)[C@H](CCC(=O)O)NC(=O)[C@@H](NC(=O)[C@@H](NC(=O)[C@H](Cc1ccc(O)cc1)NC(=O)[C@H](CCC(=O)O)NC(=O)[C@@H](NC(=O)[C@H](CCC(=O)O)NC(=O)CNC(=O)[C@H](CO)NC(=O)[C@H](CCC(=O)O)NC(=O)CNC(=O)[C@H](C)NC(=O)[C@H](CC(C)C)NC(=O)[C@@H]1CCCN1C(=O)[C@H](CO)NC(=O)[C@H](CCC(N)=O)NC(=O)[C@H](CC(=O)O)NC(=O)[C@H](CCCCN)NC(=O)[C@@H](NC(=O)CNC(=O)[C@H](CCCCN)NC(=O)[C@H](CO)NC(=O)CN)[C@@H](C)O)[C@@H](C)O)[C@@H](C)CC)[C@@H](C)O)C(C)C)C(C)C)C(=O)N[C@@H](CC(=O)O)C(=O)N[C@@H](CCCCN)C(=O)N[C@@H](CCCCN)C(=O)N[C@@H](CC(C)C)C(=O)N1CCC[C@H]1C(=O)N[C@@H](CC(N)=O)C(=O)N[C@@H](CCC(=O)O)C(=O)N[C@H](C(=O)NCC(=O)N[C@@H](Cc1ccccc1)C(=O)N[C@@H](CO)C(=O)NCC(=O)N[C@@H](CC(N)=O)C(=O)N[C@@H](CCSC)C(=O)N[C@H](C(=O)N[C@@H](CCC(=O)O)C(=O)N[C@H](C(=O)N[C@@H](CCC(=O)O)C(=O)N[C@@H](CC(=O)O)C(=O)N[C@H](C(=O)N[C@@H](CCCCN)C(=O)N[C@@H](C)C(=O)O)[C@@H](C)O)[C@@H](C)O)C(C)C)[C@@H](C)O
Kd (Fibronectin (FN1, Homo sapiens, UniProt P02751); binding, ITC; pH 7.4): 0.059 µM

Nc1ncnc2c1ncn2C1OC(COc2cccc(CCC(=O)c3ccccc3C(=O)O)c2)C(O)C1O (centres unmarked)
Kd (2-succinylbenzoate--CoA ligase (menE, Escherichia coli, UniProt P37353, K437A)): 0.249 µM

C[C@@H](O)[C@H](NC(=O)[C@@H]1CCCN1C(=O)[C@H](CO)NC(=O)[C@H](Cc1ccc(O)cc1)NC(=O)[C@H](COP(=O)(O)O)NC(=O)[C@@H]1CCCN1C(=O)[C@H](COP(=O)(O)O)NC(=O)[C@@H](NC(=O)[C@@H]1CCCN1C(=O)[C@H](CO)NC(=O)[C@H](Cc1ccc(O)cc1)NC(=O)[C@H](CO)NC(=O)[C@@H]1CCCN1C(=O)[C@@H](N)CO)[C@@H](C)O)C(=O)N[C@@H](COP(=O)(O)O)C(=O)N1CCC[C@H]1C(=O)N[C@@H](COP(=O)(O)O)C(=O)N[C@@H](Cc1ccc(O)cc1)C(=O)N[C@@H](CO)C(=O)O
Kd (Regulation of nuclear pre-mRNA domain-containing protein 2 (Homo sapiens, UniProt Q5VT52); binding, ITC; pH 7.5): > 1000 µM

CN(C)c1ccc2c(-c3ccc(C(=O)NCCCC[C@H](NC(=O)COCCOCCNC(=O)CC[C@@H]4NC(=O)[C@@H](CCCNC(=N)N)NC(=O)[C@H](CCCNC(=N)N)NC(=O)[C@@H](CCCNC(=N)N)NC(=O)[C@H](CCCNC(=N)N)NC(=O)[C@H](Cc5ccc6ccccc6c5)NC(=O)[C@@H](Cc5ccccc5)NC(=O)[C@H](Cc5ccccc5)NC4=O)C(N)=O)cc3C(=O)[O-])c3ccc(=[N+](C)C)cc-3oc2c1
Kd (fetal bovine serum proteins; binding, fluorescence polarization; 1 h): 27 ± 9 µM

CC(C)[C@@H]1NC(=O)[C@H](Cc2ccccc2)NC(=O)CSC[C@@H](C(N)=O)NC(=O)[C@H](CCC(=O)O)NC(=O)[C@H](CO)NC(=O)[C@H](Cc2c[nH]c3cccc(Cl)c23)NC(=O)[C@H](C2CCCCC2)NC(=O)[C@H](C(C)C)NC(=O)[C@H](Cc2ccc(O)cc2)NC(=O)[C@H](CC(=O)O)NC(=O)[C@H](Cc2c[nH]c3ccccc23)NC(=O)[C@H](Cc2ccc(N)nc2)NC(=O)[C@H](Cc2c[nH]c3ccc(Cl)cc23)NC(=O)[C@H](CCC(=O)O)NC1=O
Kd (Interleukin-1 receptor-like 2, D1-D2 domains (IL1RL2, Homo sapiens, UniProt Q9HB29); SPR; IL-36R D1-D2 domains): 0.00057 µM

CC(C)C[C@H](NC(=O)[C@H](CCC(N)=O)NC(=O)[C@@H]1CSSC[C@@H]2NC(=O)[C@H](CC(N)=O)NC(=O)[C@@H](N)CSSC[C@H](NC(=O)[C@H](Cc3ccccc3)NC(=O)[C@H](C)NC(=O)[C@H]([C@@H](C)O)NC(=O)[C@H](CCC(=O)O)NC(=O)[C@@H]3CCCN3C(=O)[C@H](C)NC(=O)[C@H](CCCCN)NC2=O)C(=O)N[C@@H](C)C(=O)N[C@@H](Cc2ccc(O)cc2)C(=O)N[C@@H](Cc2c[nH]c3ccccc23)C(=O)N1)C(N)=O
Kd (Protein Mdm4, residues 24-108 (MDM4, Homo sapiens, UniProt O15151); binding, SPR competition; synthetic MDMX 24-108, added: immobilized p53 peptide 15-29): 0.0934 ± 0.0092 µM

NCCCC[C@H](NC(=O)[C@@H](N)CCCCN)C(=O)NCC(=O)NCC(=O)NCCCCCCCCNC(=O)c1ccc(-c2ccccn2)cc1
Kd (Calmodulin-1 (CALM1, Homo sapiens, UniProt P0DP23); quartz crystal microbalance; PBS; 25 °C, calcium-free): 8.3 ± 0.1 µM

COC(=O)[C@H](Cc1ccccc1)NC(=O)[C@@H]1CCCN1C(=O)CNC(=O)[C@H](C)NC(C)=O
Kd (PIN1 (Homo sapiens, UniProt Q13526); binding; pH 7.4): 6.09 µM and ~6 µM

N=C(N)NCCC[C@H](NC(=O)[C@H](Cc1ccccc1)NC(=O)[C@@H]1CCCN1C(=O)[C@H](CO)NC(=O)[C@H](Cc1ccccc1)NC(=O)CNC(=O)[C@@H]1CCCN1C(=O)[C@@H]1CCCN1C(=O)[C@@H](N)CCCNC(=N)N)C(=O)N[C@@H](CCCCNS(=O)(=O)c1ccc(C2=c3cc4c5c(c3Oc3c2cc2c6c3CCCN6CCC2)CCC[N+]=5CCC4)c(S(=O)(=O)[O-])c1)C(=O)O
Kd (Oligopeptide-binding protein OppA (oppA, Lactococcus lactis subsp. lactis, UniProt Q07741); binding, fluorescence anisotropy; pH 8, 18 °C, added: dye-labelled peptide): 20 ± 1 µM

O=C(Nc1cccc(-c2nn[nH]n2)c1)c1cc(-n2cnnn2)cc(C(F)(F)F)c1
Kd (Beta-lactamase CTX-M-27; surface plasmon resonance; 25 °C): 7.24 ± 0.06 µM

NC(=O)Cc1c[nH]c2ccccc12
Kd (txtE (Streptomyces scabiei, UniProt C9ZDC6); binding; pH 8): 1800 µM and ~1800 µM

CCCN1C(=O)C(O)(C(=O)O)Oc2cc(F)ccc21 (centres unmarked)
Kd (Dihydroxy-acid dehydratase, chloroplastic (DHAD, Arabidopsis thaliana, UniProt Q9LIR4); microscale thermophoresis): < 3 µM

CC[C@H](C)[C@H](NC(=O)CNC(=O)[C@H](CCCNC(=N)N)NC(=O)[C@H](CCCCN)NC(=O)CNC(=O)[C@H](CC(N)=O)NC(=O)CNC(=O)CNC(=O)CNC(=O)[C@H](CC(C)C)NC(=O)[C@H](C)NC(=O)CNC(=O)[C@H](Cc1c[nH]c2ccccc12)NC(=O)[C@H](Cc1ccc(O)cc1)NC(=O)CNC(=O)[C@H](CCCNC(=N)N)NC(=O)[C@H](CCSC)NC(=O)CNC(=O)[C@H](CCCCN)NC(=O)[C@H](CC(N)=O)NC(=O)[C@H](Cc1ccccc1)NC(=O)[C@H](CCCCN)NC(=O)[C@@H](N)CC(N)=O)C(=O)N[C@@H](CCSC)C(=O)NCC(=O)N[C@@H](Cc1ccc(O)cc1)C(=O)N[C@@H](CC(=O)O)C(=O)O
Kd (ERBB2 (Homo sapiens, UniProt P04626); binding, SPR): 0.293 µM

O=C(Nc1cccc(-c2nn[nH]n2)c1)c1cc(-c2ccncc2)cc(C(F)(F)F)c1
Kd (Beta-lactamase CTX-M-27; surface plasmon resonance; 25 °C): 5.9 ± 0.13 µM

CCOC(=O)CCCOc1ccc(C(=C2C=CC(=[N+](C)C)C=C2)c2ccc(N(C)C)cc2)cc1
Kd (dL5** fluorogen-activating protein; fluorescence turn-on): 0.003 µM

CN1C(=O)C2(Cc3ccc(CC45SSC(CO)(C(=O)N4C)N(C)C5=O)cc3)SSC1(CO)C(=O)N2C (racemic)
Kd (Histone acetyltransferase p300, CH1 domain (EP300, Homo sapiens, UniProt Q09472); surface plasmon resonance; DTT 100 µM): 0.75 µM

Repeated from above:
C[C@H](N)C(=O)N[C@@H](CCCNC(=N)N)C(=O)N[C@H](C(=O)N[C@@H](CCCCN)C(=O)N[C@@H](CCC(N)=O)C(=O)N[C@H](C(=O)N[C@@H](C)C(=O)N[C@@H](CCCNC(=N)N)C(=O)N[C@@H](CCCCN)C(=O)N[C@@H](CO)C(=O)N[C@H](C(=O)NCC(=O)O)[C@@H](C)O)[C@@H](C)O)[C@@H](C)OP(=O)(O)O
Kd (Baculoviral IAP repeat-containing protein 5.1-A (birc5.1-a, Xenopus laevis, UniProt Q8JGN5); ITC; pH 7.2, 25 °C): 6.47 ± 0.47 µM
